Assay results collected from several papers.
A part holds a random share of what one study measured. “And” joins repeats or separate records; there may be more than shown.
Chain of UniProt P08684 (whole entry, looked up): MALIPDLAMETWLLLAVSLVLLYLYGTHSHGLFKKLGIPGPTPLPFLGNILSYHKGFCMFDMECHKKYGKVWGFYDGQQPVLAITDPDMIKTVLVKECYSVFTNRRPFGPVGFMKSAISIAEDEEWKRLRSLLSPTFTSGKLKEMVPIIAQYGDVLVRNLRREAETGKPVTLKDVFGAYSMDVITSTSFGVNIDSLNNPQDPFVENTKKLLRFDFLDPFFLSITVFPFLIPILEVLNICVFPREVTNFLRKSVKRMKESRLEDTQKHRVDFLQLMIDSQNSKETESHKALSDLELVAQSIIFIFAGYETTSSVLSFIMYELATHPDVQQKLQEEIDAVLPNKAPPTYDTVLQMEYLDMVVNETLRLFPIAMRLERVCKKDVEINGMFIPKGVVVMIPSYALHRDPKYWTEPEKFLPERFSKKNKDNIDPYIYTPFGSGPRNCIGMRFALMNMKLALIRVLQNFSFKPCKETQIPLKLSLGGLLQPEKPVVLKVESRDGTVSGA

Study 1
Organism: Leishmania donovani
Effect on: parasite growth
Cell line: THP-1
Setting: intracellular, amastigote
The IC50 of `CCOc1ccc(Nc2c3c(nc4ccc(Cl)cc24)CCC3)cc1` is reported as 3.98 µM.
For `COc1cccc(Nc2c3c(nc4ccccc24)CCC3)c1`, the IC50 was 7.41 µM.
With `Clc1ccc2nc3c(c(Nc4ccc(Oc5ccccc5)cc4)c2c1)CCC3` the IC50 was 6.82 µM.
The IC50 of `Fc1ccc(Nc2c3c(nc4ccccc24)CCC3)cc1` is reported as 4.5 µM.
The IC50 of `CCOC(=O)c1ccc(Nc2c3c(nc4ccccc24)CCC3)cc1` is reported as 9.57 µM.
For `Cc1ccc(Nc2c3c(nc4ccccc24)CCC3)cc1`, the IC50 was 4.58 µM.
With `Cc1ccc2nc3c(c(Nc4ccc(O)cc4)c2c1)CCC3` the IC50 was 6.87 µM.
The IC50 of `COC(=O)c1cccc(Nc2c3c(nc4ccccc24)CCC3)c1` is reported as 7.54 µM.

Study 2
Cell line: MDA-MB-231
Effect on: cell viability
Method: CellCounting-Lite
Tested at: 24.69 nM
Temperature: 37 °C
Direction: higher = more viable cells
The luminescence signal of `CCn1cnc2c(NCc3nc4cc(Cl)c(Cl)cc4[nH]3)nc(N3CCC(NC(C)=O)CC3)nc21` is reported as 439000 a.u. and 521000 a.u. and 470000 a.u.
For `Cn1cc(-n2cnc3c(NCc4nc5cc(Cl)c(Cl)cc5[nH]4)nc(N4CCNCC4)nc32)cn1`, the luminescence signal was 323000 a.u. and 412000 a.u. and 451000 a.u.
`CCn1cnc2c(NCc3nc4cc(Cl)c(Cl)cc4[nH]3)nc(N3CCN(C(=O)c4ccncc4)CC3)nc21` gave a luminescence signal of 246000 a.u. and 228000 a.u. and 204000 a.u.
With `CCn1cnc2c(NCc3nc4cc(Cl)c(Cl)cc4[nH]3)nc(N3CCN(Cc4ccncc4)CC3)nc21` the luminescence signal was 356000 a.u. and 343000 a.u. and 353000 a.u.
The luminescence signal of `CC(=O)N1CCN(c2nc(NCc3nc4cc(Cl)c(Cl)cc4[nH]3)c3ncn(C)c3n2)CC1` is reported as 388000 a.u. and 452000 a.u. and 150000 a.u.
`CCn1cnc2c(NCc3nc4cc(Cl)c(Cl)cc4[nH]3)nc(N3CCN(C(=O)c4ccccn4)CC3)nc21` has a luminescence signal of 150000 a.u. and 178000 a.u. and 154000 a.u.
With `CCn1cnc2c(NCc3nc4cc(Cl)c(Cl)cc4[nH]3)nc(N3CCN(c4ccccn4)CC3)nc21` the luminescence signal was 673000 a.u. and 605000 a.u. and 555000 a.u.
With `CCn1cnc2c(NCc3nc4cc(Cl)c(Cl)cc4[nH]3)nc(N3CCN(C(=O)c4ccccc4)CC3)nc21` the luminescence signal was 374000 a.u. and 368000 a.u. and 311000 a.u.

Study 3
Structure (SMILES): Cc1ncsc1-c1ccc(C(CO)NC(=O)C2CC(O)CN2C(=O)C(C(C)C)n2cc(-c3ccc(COc4c(-c5c(C)c(F)cc6[nH]ncc56)c(C5CC5)cc5c(N6CC7CC6CN7)nc(OC6CCOCC6)nc45)cc3)nn2)cc1 (stereo not drawn)
Time: 6 days
AsPC-1; CellTiter-Glo; 100 nM; reference: DMSO — viability: 7.81% and 10.1% and 9.81%.
A-375; cell growth or viability, ATP luminescence; 30 nM — viability: 84% and 88.1% and 99.8% and 80.2%.
The viability was 39.2% and 50.4% and 46.1% and 39.8% (SW-403; cell growth or viability, ATP luminescence; 0.3 µM).
It gave 87.3% and 112% and 88.3% and 101% for viability (PSN1; cell growth or viability, ATP luminescence; 1 nM).
For PSN1; cell growth or viability, ATP luminescence; 0.3 µM: viability read 95.8% and 79.4% and 107% and 91.5%.
For LCLC-97TM1; cell growth or viability, ATP luminescence; 0.3 µM: viability read 81.9% and 84.6% and 74.7% and 80.9%.
SW-403; cell growth or viability, ATP luminescence; 3 nM — viability: 83.1% and 109% and 97.6% and 92.1%.

Further values, each from its own experiment
`Cn1cc(-c2cccc(CN3CCC4(CC3)COc3c4ccc4c3CN([C@H]3CCC(=O)NC3=O)C4=O)c2)cn1` gave an IC50 of greater than 10 µM (Cytochrome P450 3A4 (CYP3A4, Homo sapiens, UniProt P08684); inhibitor; together with: testosterone).

Repeated from above (study 1):
The IC50 of `CCOc1ccc(Nc2c3c(nc4ccc(Cl)cc24)CCC3)cc1` is reported as 3.98 µM.
The IC50 of `COC(=O)c1cccc(Nc2c3c(nc4ccccc24)CCC3)c1` is reported as 7.54 µM.
With `Cc1ccc2nc3c(c(Nc4ccc(O)cc4)c2c1)CCC3` the IC50 was 6.87 µM.
